Results gathered from unrelated publications.
Lines come from different studies, so protocols differ.
Organism: Staphylococcus aureus

Cn1c(C23CC4CC(CC(C4)C2)C3)nn(CCN2CCCC2)c1=S — MIC (two-fold dilution; IFO 3060; 24 h, 36 °C): 4 µg/mL
CC(=O)NCc1cc(N(C)C)c2c(c1O)C(=O)C1=C(O)[C@]3(O)C(=O)C(C(N)=O)=C(O)[C@@H](N(C)C)[C@@H]3C[C@@H]1C2 — MIC (microbial growth, broth dilution): 2 µg/mL
CCN(CC)CCCN1/C(=C/c2cc(C)[n+](C)c3ccccc23)Sc2ccccc21 — MIC (microbial growth, broth dilution; MRSA): 8 µg/mL
CN(C)c1cc(CN2CCCC2)c(O)c2c1C[C@H]1C[C@H]3[C@H](N(C)C)C(O)=C(C(N)=O)C(=O)[C@@]3(O)C(O)=C1C2=O — MIC (microbial growth, broth dilution): 2 µg/mL
CO[C@H]1[C@H](O)[C@@H](N)[C@@H](O[C@H]2[C@H](O[C@@H]3O[C@H](CO)[C@@H](O[C@H]4O[C@@H](CN)[C@@H](O)[C@H](O)[C@H]4N)[C@H]3O)[C@@H](O)[C@H](N)C[C@@H]2N)O[C@@H]1CO — MIC (broth microdilution; MRSA isolate AG 038): 32 µg/mL
CC(CCCOC(=O)CCC[N+](C)(C)C)C1CCC2C3CCC4CC(OC(=O)CCC[N+](C)(C)C)CCC4(C)C3CC(OC(=O)CCC[N+](C)(C)C)C12C (stereo not drawn) — MIC (microbial growth, broth dilution; ATCC29213; 16 h): 2 µg/mL
CN(C)c1cc(CNC(=O)OCC(C)(C)C)c(O)c2c1C[C@H]1C[C@H]3[C@H](N(C)C)C(O)=C(C(N)=O)C(=O)[C@@]3(O)C(O)=C1C2=O — MIC (MRSA 5, Tet M ribosome protection): 4 µg/mL
CC(C)CCCCCCc1nc2ccccc2c(=O)n1N — MIC (broth microdilution; RN6390B): > 100 µM
CCc1nc(N)nc(N)c1C#CC(C)c1cc(-c2cc(C)nc(C)c2)ccc1OC (stereo not drawn) — MIC (microbial growth, broth dilution; ATCC43300; 18 h): 0.156 µg/mL
Cc1cc(=O)nc(NC(=O)NCCCCCCNC(=O)NCCCCCCNC(=O)OCCOCCOCCOCCOCCOCCOCC(=O)N[C@@H](CC(C)C)C(=O)N[C@@H](CCCCN)C(=O)N[C@@H](CC(C)C)C(=O)N[C@@H](CC(C)C)C(=O)N[C@@H](CCCCN)C(=O)N[C@@H](CCCCN)C(=O)N[C@@H](CC(C)C)C(=O)N[C@@H](CC(C)C)C(=O)N[C@@H](CCCCN)C(=O)N[C@@H](CCCCN)C(=O)N[C@@H](CC(C)C)C(=O)N[C@@H](CC(C)C)C(=O)N[C@@H](CCCCN)C(=O)N[C@@H](CC(C)C)C(=O)N[C@@H](CC(C)C)C(N)=O)[nH]1 — MIC (MSSA RN 4220, RPMI medium; 24 h, 37 °C): 3.7 µM
CC[P+](CC)(CC)[Au-][S][C@@H]1O[C@H](COC(C)=O)[C@H](OC(C)=O)[C@H](OC(C)=O)[C@H]1OC(C)=O — MIC (broth microdilution; JE2 (USA300)): 0.04 µM
C/C(=N\NC1=NC(=O)CS1)c1ccc2c(c1)sc1nc(=O)c(C#N)cn12 — MIC (microbial growth, broth dilution): < 48 µg/mL
CN(C)c1cc(CN2CCCCC2)c(O)c2c1C[C@H]1C[C@H]3[C@H](N(C)C)C(O)=C(C(N)=O)C(=O)[C@@]3(O)C(O)=C1C2=O — MIC (microbial growth, broth dilution): 0.125 µg/mL
CC(C)=CCc1c(O)ccc2c1O[C@H]1c3cc4c(cc3OC[C@@H]21)OC(C)(C)C=C4 — MIC (ATCC 25923): 128 µg/mL
CNC(CC(C)C)C(=O)NC1C(=O)NC(CC(N)=O)C(=O)NC2C(=O)NC3C(=O)NC(C(=O)NC(C(=O)O)c4cc(O)cc(O)c4-c4cc3ccc4O)C(O)c3ccc(c(Cl)c3)Oc3cc2cc(c3OC2OC(CO)C(O)C(O)C2OC2CC(C)(NC(=O)CCCCCC[N+]3(C)CCOCC3)C(O)C(C)O2)Oc2ccc(cc2Cl)C1O (stereo not drawn) — MIC (agar dilution; MRSA clinical isolate MRSA3): 512 µg/mL

Some of these lines once more:
CC(C)=CCc1c(O)ccc2c1O[C@H]1c3cc4c(cc3OC[C@@H]21)OC(C)(C)C=C4 — MIC (ATCC 25923): 128 µg/mL
CNC(CC(C)C)C(=O)NC1C(=O)NC(CC(N)=O)C(=O)NC2C(=O)NC3C(=O)NC(C(=O)NC(C(=O)O)c4cc(O)cc(O)c4-c4cc3ccc4O)C(O)c3ccc(c(Cl)c3)Oc3cc2cc(c3OC2OC(CO)C(O)C(O)C2OC2CC(C)(NC(=O)CCCCCC[N+]3(C)CCOCC3)C(O)C(C)O2)Oc2ccc(cc2Cl)C1O (stereo not drawn) — MIC (agar dilution; MRSA clinical isolate MRSA3): 512 µg/mL
